Experimental data from different studies.
Numbered parts are unrelated; each lists some results of a single study. Changes are numbered by the printed parent chain.

Block 1
Target: ABI1, truncated, D143A, DHFR fusion (Arabidopsis thaliana)
Method: DHFR PCA, deep sequencing
Matrix: yeast
Notes: methotrexate growth selection, single substitutions
With: (+)-ABA 710 µM
Reference: wild-type fitted maximum
Reading: higher = stronger binding
Parent: PYL1, truncated, DHFR fusion (Arabidopsis thaliana); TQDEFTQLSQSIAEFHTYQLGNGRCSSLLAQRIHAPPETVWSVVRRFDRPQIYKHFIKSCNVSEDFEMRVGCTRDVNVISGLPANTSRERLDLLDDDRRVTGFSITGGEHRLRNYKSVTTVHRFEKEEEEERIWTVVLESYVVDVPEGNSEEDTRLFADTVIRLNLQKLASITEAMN
| Substitution | relative binding score [%] |
| --- | --- |
| N149A | 88.2 |
| G81H | 65.8 |
| P37D | 84.5 |
| C25T | 103 |
| T173A | 101 |
| T86M | 98.2 |
| I33C | 95.9 |
| Q167C | 94.8 |
| T160I | 89.6 |
| A30R | 105 |
| R111N | 93.7 |
| T73M | 101 |
| P37M | 90.8 |
| G23Q | 96.7 |

Block 2
Target: CCNA1, cyclin fold, Cln2 fusion (human)
Method: yeast growth competition, sequencing
Matrix: yeast
Notes: weak parent motif
Reference: not given
Reading: higher = stronger binding
Parent: MICAL3 docking peptide (human); LQLRRQLSFSEDS; partner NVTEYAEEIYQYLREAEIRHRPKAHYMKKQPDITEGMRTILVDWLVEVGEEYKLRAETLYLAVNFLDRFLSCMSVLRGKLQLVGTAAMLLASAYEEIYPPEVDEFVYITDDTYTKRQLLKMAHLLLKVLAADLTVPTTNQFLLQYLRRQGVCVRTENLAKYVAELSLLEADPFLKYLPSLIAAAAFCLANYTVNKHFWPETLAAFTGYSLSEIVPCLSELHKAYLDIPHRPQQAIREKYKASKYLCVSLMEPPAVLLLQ
| Substitution | normalised enrichment score |
| --- | --- |
| Q6P | -0.0732 |
| Q6G | 0.0914 |
| R5C | 0.292 |
| L3V | 1.65 |
| S8V | 0.342 |
| S8W | 0.224 |
| S10L | 0.408 |
| D12H | 0.372 |
| D12S | 0.136 |
| R5S | -0.0496 |
| R4G | -0.151 |
| Q6V | 0.301 |
| F9T | 0.366 |
| D12W | 0.235 |

Block 3
Target: Histone acetyltransferase KAT6A, winged helix 1, GST fusion (KAT6A, Homo sapiens, UniProt Q92794, residues 1-85)
Method: protein binding microarray
Molecule type: double-stranded DNA, one strand shown
Matrix: in vitro
Concentration: not given
Notes: 8-mer, flanks averaged, mean of 2 arrays, mostly near background
Reference: not given
Reading: higher = stronger binding
Target sequence (chain): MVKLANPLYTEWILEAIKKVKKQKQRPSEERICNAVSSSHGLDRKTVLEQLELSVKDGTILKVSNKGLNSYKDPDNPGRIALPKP
| Strand | E-score |
| --- | --- |
| ATTACAGA | -0.05 |
| GGGGGGAC | -0.00562 |
| AATTAAGA | -0.19 |
| CGACGTGC | 0.202 |
| TCGGAGAA | 0.0625 |
| CGAACAAC | -0.171 |
| CGAGGACA | 0.075 |
| CATAGCAA | -0.211 |
| CCTGGGCG | 0.0258 |
| CAGGGCGG | 0.204 |
| TAGGCAAA | -0.163 |
| AAACGTAA | -0.081 |
| AAGTAAAT | -0.185 |
| ACTGACCA | -0.113 |
| TCGACTAA | -0.152 |
| ATAGGTAG | -0.318 |
| CTCACTAA | -0.0374 |
| CATGTGCC | -0.0373 |
| CTTGTTCC | -0.0816 |

Block 4
Target: Interferon regulatory factor 7, full length, phosphomimetic (IRF7, Homo sapiens, UniProt Q92985, residues 1-503, S101K/S471D/S472D/S475D/S476D/S477D/S483D/S484D/S487D)
Sequence of UniProt Q92985 (whole entry, unmodified, looked up): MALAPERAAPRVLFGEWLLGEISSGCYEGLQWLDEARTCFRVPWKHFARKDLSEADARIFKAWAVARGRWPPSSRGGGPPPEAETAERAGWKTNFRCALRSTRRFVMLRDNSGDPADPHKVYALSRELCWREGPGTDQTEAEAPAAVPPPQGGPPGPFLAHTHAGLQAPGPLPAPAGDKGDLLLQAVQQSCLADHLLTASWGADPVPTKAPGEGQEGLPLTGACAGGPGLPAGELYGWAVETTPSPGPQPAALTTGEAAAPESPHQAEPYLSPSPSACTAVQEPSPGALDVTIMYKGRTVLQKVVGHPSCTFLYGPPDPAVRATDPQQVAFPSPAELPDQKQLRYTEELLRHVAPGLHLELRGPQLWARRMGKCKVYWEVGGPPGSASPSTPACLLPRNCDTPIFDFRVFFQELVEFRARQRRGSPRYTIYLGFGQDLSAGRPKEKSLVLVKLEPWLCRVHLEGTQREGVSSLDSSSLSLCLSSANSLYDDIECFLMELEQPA
Method: protein-binding microarray
Molecule type: double-stranded DNA, one strand shown
Matrix: in vitro
Concentration: 250 nM
Notes: 60-bp whole probe
With: salmon DNA 0.4 mg/ml
Reference: random background probes
Reading: higher = stronger binding
All sequences stand within: GCCTAGCAC … GTCTTGATTCGCTTGACGCTGCTG
| Strand | log fluorescence |
| --- | --- |
| TGTTTTACAGGTTCTCTTTTAGTGCTA | 3.42 z-score |
| GACGGTATCGAACTGGGGACGTGCTAG | 0.333 z-score |
| GACGATATCAGACTGGATACGTGCTAG | -0.263 z-score |
| TTAGATTGCAGTCTCGATTAGTGCTAG | 1.17 z-score |
| GACGGTTTCGGGTTTCGGGAGGTGCTA | 11.4 z-score |
| AGTTTTCTCATTCGTCATTTCGTGCTA | 2.87 z-score |
| TTAGGTTTCAGACTGGATTAGTGCTAG | 0.545 z-score |
| TTAGAACTGAGTTTCAATTAGTGCTAG | 0.552 z-score |
| GACGATTTCAGTTTCGATACGTGCTAG | 7.63 z-score |
| TCAGGTCTCGGTATCGGTTAGTGCTAG | 3.32 z-score |
| GACGATTTCAGACTGCAGACGTGCTAG | 0.237 z-score |
| TTACAACTGGGGACTGGATTAGTGCTA | 0.044 z-score |
| GTCGAACTGAGTCTCGAGACGTGCTAG | 0.894 z-score |
| GACGGTTTCGGTCTGGGGACGTGCTAG | 8.49 z-score |
| GACGAACTGAGTATCGGGACGTGCTAG | -0.29 z-score |
| TTAGGACTAGACACTGGGTTAGTGCTA | -0.0329 z-score |
| GACGCTTTCGGGTTTCGAGACGTGCTA | 4.87 z-score |
| GACGGACTGGACTTTCGGGACGTGCTA | -0.477 z-score |
| TTTCTTTTTGCACTCTCTACGTGCTAG | 4.31 z-score |
| TTAGATTTCAGACTAGATTAGTGCTAG | 0.234 z-score |
| TTGGCTTTCCTTTATGTCCTGTGCTAG | 0.163 z-score |
| GACTATTTCAGACTGGAGACGTGCTAG | 0.716 z-score |

Block 5
Target: POU domain, class 5, transcription factor 1, POU domain (Pou5f1, Mus musculus, UniProt P20263, residues 131-289)
Sequence of UniProt P20263 (131-289, looked up): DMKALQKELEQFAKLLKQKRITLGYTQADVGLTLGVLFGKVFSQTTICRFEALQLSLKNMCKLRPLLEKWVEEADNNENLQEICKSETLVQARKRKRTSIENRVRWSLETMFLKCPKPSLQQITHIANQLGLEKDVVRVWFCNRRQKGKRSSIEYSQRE
Method: Spec-seq
Molecule type: double-stranded DNA, one strand shown
Matrix: in vitro
Concentration: not given
Notes: whole probe, mean of replicates
Reference: not given
Reading: lower = stronger binding
All sequences stand within: GAGTCGTCTCGTCAGCAC … CCGTAGAGCACTCAGGTC
| Strand | relative binding energy [ln ratio] |
| --- | --- |
| ATAAGAAT | -0.0476 |
| ATGCAGAG | -0.205 |
| ATTAAAAT | -0.652 |
| ATGCTGCT | 0.656 |
| GCACTAAT | 0.336 |
| TTGGTAAT | -0.334 |
| CCAGTAAT | 0.836 |
| GCTATAAT | 0.691 |
| CACCTAAT | 0.825 |
| ATGCAATC | -0.298 |
| ATGCAGGT | 0.313 |
| ATGCCGTC | 0.754 |
| ATGCCTTT | 0.484 |
| ATACGCAT | -0.281 |
| AAACTAAT | 0.335 |
| GTAATAAT | 0.121 |

Block 6
Target: RING finger protein unkempt homolog, zinc fingers 1-6, SBP tag (UNK, Homo sapiens, UniProt Q9C0B0, residues 30-357)
Sequence of UniProt Q9C0B0 (30-357, looked up): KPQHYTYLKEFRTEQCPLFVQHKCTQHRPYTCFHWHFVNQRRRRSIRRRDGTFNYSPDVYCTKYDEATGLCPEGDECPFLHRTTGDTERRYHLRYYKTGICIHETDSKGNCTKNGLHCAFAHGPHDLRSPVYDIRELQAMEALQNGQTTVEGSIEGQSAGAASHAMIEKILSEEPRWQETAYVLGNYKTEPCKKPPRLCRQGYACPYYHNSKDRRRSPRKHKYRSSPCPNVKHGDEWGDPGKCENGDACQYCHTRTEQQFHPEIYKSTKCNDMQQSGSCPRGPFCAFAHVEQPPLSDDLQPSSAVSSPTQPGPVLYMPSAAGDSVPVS
Method: RNA Bind-n-Seq
Molecule type: RNA
Matrix: in vitro
Concentration: 100 nM
Notes: RNA with constant flanks, vertebrate orthologous sites, ends assumed
Reference: input RNA pool
Reading: higher = stronger binding
| Strand | bound/input enrichment [ratio] |
| --- | --- |
| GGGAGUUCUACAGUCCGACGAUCUUUUUUUCUUUUUUUUUUAAUUUAAUUUUUCCUUUUGGGGGUAAAGUUUGCUCUACCAAAUAGUGAUUGUAACAAAUUGAUCUGUUUUGGAUGUUGCUAUAGUGACAUGCAGUUAUAUAUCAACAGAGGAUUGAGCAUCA | 1.48 |
| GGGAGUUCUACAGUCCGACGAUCUGGAAGUAUUUAUACUGGCCAAACAUUUUUUACUUAUUUUGAUCCCCCCCUUUUUUUUGGUAGUUCUUGUUACCCACACCAUUUUAUGUCUCCUUCACUGAAGGGCUAGAGUUUUAAGUUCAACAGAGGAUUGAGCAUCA | 0.781 |
| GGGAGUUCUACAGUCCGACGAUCGGCUCCUCCCCUGGGCCCAUGCUGCCCUCCUGUGCCCUGCCGGGCCUCGAGGACCUGCGUUUCAAACAUUUUGUAACCUGCUGUCCAAGGGGAGGUGUGUCUGGAGUGCAUCUCGGAGCCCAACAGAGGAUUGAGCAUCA | 0.269 |
| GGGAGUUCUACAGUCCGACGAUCAGCAACUCAAGGAUUCAGGACUGGUUUUACACAUGUCCCAAGCAGAUAUGGAACUGGCACUCGAGGUCAACCCCAGCCAUAAUAAACUCUAUUUUGCGUUAUUUAUUGUACAUAAGGGUACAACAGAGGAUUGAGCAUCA | 0.34 |
| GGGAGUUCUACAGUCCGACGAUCGUCGCCGGAAUGACGUCGACCCUAACGUUGCAGUGGAAAGGAUGUCCCAGUAUGUGUUGGUAGUUACUGAAGGACGUAUAGCUGGUGUUGCCUUGUAUUUUAGCCGUUGUUUCAGGUUUCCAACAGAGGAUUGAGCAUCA | 0.624 |
| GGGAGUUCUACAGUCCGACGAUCAUUUUUUAAAGUUUUUUUAAUUUAAUUUUUCCUUUUGGGGGUAAAGUUUGCUCUACCAAAUAGUGAUCGUAACAAAUGAUCUGUUUUGGAUGUUGCUAUAGUGACAUGCAGUUAUAUAUUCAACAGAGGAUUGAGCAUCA | 0.368 |
| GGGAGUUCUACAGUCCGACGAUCUUUAAAGUCAUUUUUCCACAUUUCCUGUAAAUAAUGGUUAAUCGUUUUUUAUUUUAUUUUUAAGUGCUGUUUAACAAUGUGGCUAGACCAUAAAUGUACUUGCUGAAUUCAUUCAUUUUUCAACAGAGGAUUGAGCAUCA | 0.39 |
| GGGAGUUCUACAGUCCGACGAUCUUUUCUUUUUUUGCACUGACAGUGUUUGUCUUGAGGAUCUUCUGAGGAAGAGGGGUGCUGUGGCAGUGGCACCUGGGUGCCUGGCCUCCAGUGUCCCAUCCCCUUCACCCCACUUGGCUCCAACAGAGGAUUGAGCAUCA | 0.219 |
| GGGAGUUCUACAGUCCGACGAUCUGGGCGUCCCCUCUGGGGAGCCGCUGGCUGCUUAGCGCUGUUUGAUUUUUGACCUUGACAUAGUAGAUAGGCUUGUGGUUUUUUUUUUAAUUUAAAGAUAUUAAGACUUAAUUCACUAAACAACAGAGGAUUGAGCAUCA | 0.513 |
| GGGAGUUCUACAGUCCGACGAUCAAACUUUUUUUUUUUAAUUUAAUUUUUUCCUUUCAGGGGUAAAGUUUGCUUUACCAAAAAUAGUGGUUGUAACAAAUUGAUCUGUUUUGGAUGUUGCUAUAGUGACAUGCAGUUCUCUAUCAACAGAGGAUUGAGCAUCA | 1.14 |
| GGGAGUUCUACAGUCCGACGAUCCCUAUAAUAAUGAGAACCGACAGGAAUUUUUUUAUUUCUCAUUUUCCCCUGAGGUAUAUUCAGUCCUUUUCCCCAGGCAGAUCAUUCUGAGUGCGUGUGUGUGUGUGUGUGCACAUGUUACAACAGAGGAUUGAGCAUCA | 0.611 |

Some of these lines once more (block 1):
| Substitution | relative binding score [%] |
| --- | --- |
| T160I | 89.6 |
| G23Q | 96.7 |
| G81H | 65.8 |
| N149A | 88.2 |
| T86M | 98.2 |
| T73M | 101 |
| Q167C | 94.8 |
| I33C | 95.9 |
| P37D | 84.5 |
| R111N | 93.7 |
| C25T | 103 |
| P37M | 90.8 |
| T173A | 101 |
| A30R | 105 |
